Results of several laboratories.
A part holds a random share of what one study measured. Several values in a cell are separate wells, animals, samples, runs or records.
UniProt Q13153, sequence (whole entry, looked up): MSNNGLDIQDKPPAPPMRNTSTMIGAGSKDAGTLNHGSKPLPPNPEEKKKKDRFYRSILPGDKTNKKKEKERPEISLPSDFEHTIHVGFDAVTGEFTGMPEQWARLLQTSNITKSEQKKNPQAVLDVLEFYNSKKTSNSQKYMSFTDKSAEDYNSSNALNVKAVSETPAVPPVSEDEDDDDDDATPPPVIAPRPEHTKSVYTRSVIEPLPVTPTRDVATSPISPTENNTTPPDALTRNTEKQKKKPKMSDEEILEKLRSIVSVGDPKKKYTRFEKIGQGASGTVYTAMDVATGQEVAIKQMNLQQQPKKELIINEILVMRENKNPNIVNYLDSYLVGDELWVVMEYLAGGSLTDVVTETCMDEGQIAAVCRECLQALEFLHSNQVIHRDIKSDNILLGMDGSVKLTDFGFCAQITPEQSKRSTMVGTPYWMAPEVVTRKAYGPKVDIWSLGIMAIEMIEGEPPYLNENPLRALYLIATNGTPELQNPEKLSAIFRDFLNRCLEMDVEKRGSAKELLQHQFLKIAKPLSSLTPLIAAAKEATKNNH
UniProt P50750, sequence (whole entry, looked up): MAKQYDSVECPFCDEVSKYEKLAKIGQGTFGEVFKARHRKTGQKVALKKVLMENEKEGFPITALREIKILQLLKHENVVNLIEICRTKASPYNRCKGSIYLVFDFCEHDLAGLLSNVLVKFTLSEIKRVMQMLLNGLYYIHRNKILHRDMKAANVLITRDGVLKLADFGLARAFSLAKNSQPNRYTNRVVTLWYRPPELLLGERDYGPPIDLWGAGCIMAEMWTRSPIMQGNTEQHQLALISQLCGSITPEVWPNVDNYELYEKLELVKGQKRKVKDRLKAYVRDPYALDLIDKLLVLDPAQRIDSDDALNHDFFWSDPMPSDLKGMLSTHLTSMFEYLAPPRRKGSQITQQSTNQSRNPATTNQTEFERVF
UniProt P48730, sequence (whole entry, looked up): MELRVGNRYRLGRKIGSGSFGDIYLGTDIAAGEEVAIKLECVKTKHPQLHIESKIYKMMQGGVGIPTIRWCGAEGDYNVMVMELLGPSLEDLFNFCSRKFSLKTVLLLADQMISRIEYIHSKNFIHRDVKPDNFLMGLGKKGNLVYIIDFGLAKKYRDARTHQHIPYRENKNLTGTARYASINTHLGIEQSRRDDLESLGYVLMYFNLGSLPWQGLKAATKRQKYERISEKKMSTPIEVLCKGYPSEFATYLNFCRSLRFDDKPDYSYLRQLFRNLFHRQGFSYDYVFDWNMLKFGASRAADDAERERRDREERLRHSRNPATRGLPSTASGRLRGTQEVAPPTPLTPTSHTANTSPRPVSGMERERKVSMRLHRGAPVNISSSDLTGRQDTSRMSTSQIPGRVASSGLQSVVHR
UniProt Q9NYL2, sequence (whole entry, looked up): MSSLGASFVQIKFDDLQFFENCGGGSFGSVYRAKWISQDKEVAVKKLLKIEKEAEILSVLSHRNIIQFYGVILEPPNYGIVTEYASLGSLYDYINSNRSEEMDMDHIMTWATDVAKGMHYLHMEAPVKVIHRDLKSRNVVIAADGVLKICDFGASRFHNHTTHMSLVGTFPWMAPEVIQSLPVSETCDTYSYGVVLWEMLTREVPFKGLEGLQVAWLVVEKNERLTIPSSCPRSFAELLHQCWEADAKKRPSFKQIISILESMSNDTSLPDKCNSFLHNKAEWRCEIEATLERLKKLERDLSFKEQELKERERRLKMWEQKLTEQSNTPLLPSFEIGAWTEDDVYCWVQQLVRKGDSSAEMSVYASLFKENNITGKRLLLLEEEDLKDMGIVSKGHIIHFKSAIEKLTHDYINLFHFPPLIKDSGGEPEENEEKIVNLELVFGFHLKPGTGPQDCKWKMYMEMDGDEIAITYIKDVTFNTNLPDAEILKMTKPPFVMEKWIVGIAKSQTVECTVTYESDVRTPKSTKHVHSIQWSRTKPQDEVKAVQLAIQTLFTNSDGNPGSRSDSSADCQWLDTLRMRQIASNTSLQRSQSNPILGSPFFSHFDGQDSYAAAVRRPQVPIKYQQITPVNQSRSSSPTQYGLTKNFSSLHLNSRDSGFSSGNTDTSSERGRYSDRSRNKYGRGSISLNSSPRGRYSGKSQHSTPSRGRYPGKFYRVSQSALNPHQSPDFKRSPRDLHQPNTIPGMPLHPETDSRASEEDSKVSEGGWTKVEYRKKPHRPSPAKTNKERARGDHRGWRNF
UniProt Q14012, sequence (whole entry, looked up): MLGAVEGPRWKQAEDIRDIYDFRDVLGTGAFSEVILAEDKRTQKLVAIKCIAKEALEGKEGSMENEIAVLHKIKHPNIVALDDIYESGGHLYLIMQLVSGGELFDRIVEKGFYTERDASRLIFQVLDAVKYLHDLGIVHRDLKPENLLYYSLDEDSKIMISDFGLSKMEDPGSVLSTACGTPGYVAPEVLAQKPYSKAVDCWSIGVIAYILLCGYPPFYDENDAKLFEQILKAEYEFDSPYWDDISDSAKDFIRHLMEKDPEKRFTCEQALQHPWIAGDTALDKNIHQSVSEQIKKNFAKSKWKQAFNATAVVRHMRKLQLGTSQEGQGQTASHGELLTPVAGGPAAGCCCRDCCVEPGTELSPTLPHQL

Study 1
Compound: Cc1nc(Nc2ncc(C(=O)Nc3c(C)cccc3Cl)s2)cc(N2CCN(CCO)CC2)n1
Mode: inhibitor
target	tested at	inhibition [%]
Casein kinase I isoform delta (CSNK1D, Homo sapiens, UniProt P48730)	10 µM	< 50
Dual specificity protein kinase CLK3 (CLK3, Homo sapiens, UniProt P49761)	10 µM	< 50
Inhibitor of nuclear factor kappa-B kinase subunit alpha (CHUK, Homo sapiens, UniProt O15111)	1 µM	< 50
Tyrosine-protein kinase ZAP-70 (ZAP70, Homo sapiens, UniProt P43403)	10 µM	< 50
Tyrosine-protein kinase Mer (MERTK, Homo sapiens, UniProt Q12866)	10 µM	< 50
Ephrin type-A receptor 3 (EPHA3, Homo sapiens, UniProt P29320)	10 µM	94
ALK tyrosine kinase receptor (ALK, Homo sapiens, UniProt Q9UM73)	1 µM	< 50
Protein kinase C eta type (PRKCH, Homo sapiens, UniProt P24723)	10 µM	< 50
Cyclin-dependent kinase 9 (CDK9, Homo sapiens, UniProt P50750)	10 µM	< 50
Ribosomal protein S6 kinase alpha-6, C-terminal kinase domain (RPS6KA6, Homo sapiens, UniProt Q9UK32)	10 µM	< 50

Study 2
Compound: Cn1cc(Cl)c2c(Oc3c(F)cc(Nc4cc(Cl)nc(N)n4)cc3F)ccnc21
Effect on: cell-free assay
Method: competition with immobilised ligand
Tested at: 0.1 µM
target	remaining binding
Phosphatidylinositol 4-phosphate 3-kinase C2 domain-containing subunit beta (PIK3C2B, Homo sapiens, UniProt O00750)	83%
Phosphatidylinositol 4,5-bisphosphate 3-kinase catalytic subunit alpha isoform (PIK3CA, Homo sapiens, UniProt P42336)	79%
Ephrin type-A receptor 2 (EPHA2, Homo sapiens, UniProt P29317)	100%
Receptor tyrosine-protein kinase erbB-4 (ERBB4, Homo sapiens, UniProt Q15303)	97%
Tyrosine-protein kinase FRK (FRK, Homo sapiens, UniProt P42685)	81%
Serine/threonine-protein kinase SBK1 (SBK1, Homo sapiens, UniProt Q52WX2)	97%
Phosphorylase b kinase gamma catalytic chain, skeletal muscle/heart isoform (PHKG1, Homo sapiens, UniProt Q16816)	100%
Receptor-type tyrosine-protein kinase FLT3 (FLT3, Homo sapiens, UniProt P36888, D835Y)	99%
Myosin light chain kinase (MYLK3, Homo sapiens, UniProt Q32MK0)	94%
MAP/microtubule affinity-regulating kinase 3 (MARK3, Homo sapiens, UniProt P27448)	83%
Serine/threonine-protein kinase 36 (STK36, Homo sapiens, UniProt Q9NRP7)	93%
Casein kinase I isoform gamma-1 (CSNK1G1, Homo sapiens, UniProt Q9HCP0)	100%
Serine/threonine-protein kinase PAK 1 (PAK1, Homo sapiens, UniProt Q13153)	100%
Megakaryocyte-associated tyrosine-protein kinase (MATK, Homo sapiens, UniProt P42679)	97%
SNF-related serine/threonine-protein kinase (SNRK, Homo sapiens, UniProt Q9NRH2)	86%
cAMP-dependent protein kinase catalytic subunit beta (PRKACB, Homo sapiens, UniProt P22694)	92%
Mitogen-activated protein kinase kinase kinase 20 (MAP3K20, Homo sapiens, UniProt Q9NYL2)	97%
Serine/threonine-protein kinase DCLK1 (DCLK1, Homo sapiens, UniProt O15075)	85%
Serine/threonine-protein kinase 17A (STK17A, Homo sapiens, UniProt Q9UEE5)	94%
Dual serine/threonine and tyrosine protein kinase (DSTYK, Homo sapiens, UniProt Q6XUX3)	98%
Cyclin-dependent kinase 9 (CDK9, Homo sapiens, UniProt P50750)	100%
Epidermal growth factor receptor (EGFR, Homo sapiens, UniProt P00533, del752-759)	52%
Mitogen-activated protein kinase kinase kinase 13 (MAP3K13, Homo sapiens, UniProt O43283)	99%
Protein kinase C epsilon type (PRKCE, Homo sapiens, UniProt Q02156)	91%
5'-AMP-activated protein kinase catalytic subunit alpha-1 (PRKAA1, Homo sapiens, UniProt Q13131)	100%

Study 3
Target: DNA polymerase theta, ATPase domain (POLQ, Homo sapiens, UniProt O75417)
UniProt O75417, sequence (whole entry, unmodified, looked up): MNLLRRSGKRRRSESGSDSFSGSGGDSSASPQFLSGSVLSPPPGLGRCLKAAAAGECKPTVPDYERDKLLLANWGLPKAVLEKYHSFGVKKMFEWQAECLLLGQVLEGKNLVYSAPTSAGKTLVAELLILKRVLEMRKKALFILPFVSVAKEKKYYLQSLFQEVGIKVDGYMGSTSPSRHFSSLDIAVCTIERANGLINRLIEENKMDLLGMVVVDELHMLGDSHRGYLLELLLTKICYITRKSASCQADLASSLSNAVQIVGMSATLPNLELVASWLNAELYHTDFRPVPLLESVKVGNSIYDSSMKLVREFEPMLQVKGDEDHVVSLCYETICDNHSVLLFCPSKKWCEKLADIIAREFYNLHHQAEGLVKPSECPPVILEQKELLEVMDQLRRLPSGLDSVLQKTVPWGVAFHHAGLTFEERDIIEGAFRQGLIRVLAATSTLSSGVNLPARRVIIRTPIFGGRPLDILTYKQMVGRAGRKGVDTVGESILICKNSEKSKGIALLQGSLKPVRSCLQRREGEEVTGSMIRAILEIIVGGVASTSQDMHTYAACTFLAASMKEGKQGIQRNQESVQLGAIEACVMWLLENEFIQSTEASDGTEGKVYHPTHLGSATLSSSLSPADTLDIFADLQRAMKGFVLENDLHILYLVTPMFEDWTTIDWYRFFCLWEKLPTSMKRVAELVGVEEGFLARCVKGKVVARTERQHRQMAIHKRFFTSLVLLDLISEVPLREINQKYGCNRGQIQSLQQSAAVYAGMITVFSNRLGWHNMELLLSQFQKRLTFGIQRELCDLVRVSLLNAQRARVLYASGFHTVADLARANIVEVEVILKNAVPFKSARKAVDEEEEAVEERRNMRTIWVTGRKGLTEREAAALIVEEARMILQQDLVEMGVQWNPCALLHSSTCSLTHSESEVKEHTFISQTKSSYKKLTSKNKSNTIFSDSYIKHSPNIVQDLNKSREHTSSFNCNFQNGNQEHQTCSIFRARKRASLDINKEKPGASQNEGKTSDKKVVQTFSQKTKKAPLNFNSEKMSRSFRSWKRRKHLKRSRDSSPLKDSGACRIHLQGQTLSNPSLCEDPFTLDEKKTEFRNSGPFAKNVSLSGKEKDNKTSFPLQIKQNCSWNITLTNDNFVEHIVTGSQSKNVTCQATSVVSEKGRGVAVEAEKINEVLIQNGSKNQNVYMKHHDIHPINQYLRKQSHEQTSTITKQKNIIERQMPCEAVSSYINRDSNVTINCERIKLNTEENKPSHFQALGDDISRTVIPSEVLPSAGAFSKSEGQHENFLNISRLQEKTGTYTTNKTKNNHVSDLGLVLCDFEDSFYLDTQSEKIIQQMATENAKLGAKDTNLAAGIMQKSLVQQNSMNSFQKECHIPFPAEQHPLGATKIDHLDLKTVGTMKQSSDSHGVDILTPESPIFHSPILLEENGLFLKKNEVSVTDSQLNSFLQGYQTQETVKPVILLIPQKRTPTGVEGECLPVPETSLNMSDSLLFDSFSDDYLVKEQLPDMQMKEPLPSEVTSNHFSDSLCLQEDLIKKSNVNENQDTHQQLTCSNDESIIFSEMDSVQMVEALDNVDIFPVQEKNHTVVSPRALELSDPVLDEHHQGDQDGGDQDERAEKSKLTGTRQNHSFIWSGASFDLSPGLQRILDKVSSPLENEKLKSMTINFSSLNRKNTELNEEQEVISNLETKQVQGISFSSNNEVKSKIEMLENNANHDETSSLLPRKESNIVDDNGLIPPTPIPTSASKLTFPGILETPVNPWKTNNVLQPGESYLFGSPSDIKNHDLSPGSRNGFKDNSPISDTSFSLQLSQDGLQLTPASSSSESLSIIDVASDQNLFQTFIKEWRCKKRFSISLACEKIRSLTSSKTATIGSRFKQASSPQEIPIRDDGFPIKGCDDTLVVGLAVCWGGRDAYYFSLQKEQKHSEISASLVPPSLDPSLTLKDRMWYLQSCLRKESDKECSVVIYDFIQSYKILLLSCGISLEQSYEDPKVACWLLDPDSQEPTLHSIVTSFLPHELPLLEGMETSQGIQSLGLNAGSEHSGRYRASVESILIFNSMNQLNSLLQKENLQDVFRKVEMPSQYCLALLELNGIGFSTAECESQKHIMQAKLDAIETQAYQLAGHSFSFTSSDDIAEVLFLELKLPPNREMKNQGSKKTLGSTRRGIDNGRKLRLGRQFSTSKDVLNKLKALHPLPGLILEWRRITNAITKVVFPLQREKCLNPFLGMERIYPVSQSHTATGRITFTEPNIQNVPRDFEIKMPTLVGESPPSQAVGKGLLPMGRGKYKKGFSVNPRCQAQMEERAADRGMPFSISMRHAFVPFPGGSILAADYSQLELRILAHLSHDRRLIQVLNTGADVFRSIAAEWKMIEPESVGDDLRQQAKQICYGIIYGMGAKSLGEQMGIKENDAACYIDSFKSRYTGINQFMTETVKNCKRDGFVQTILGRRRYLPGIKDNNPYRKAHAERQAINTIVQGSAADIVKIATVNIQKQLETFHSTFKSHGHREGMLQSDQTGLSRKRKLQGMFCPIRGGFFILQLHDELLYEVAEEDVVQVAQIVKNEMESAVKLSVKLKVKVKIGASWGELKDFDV
Effect on: enzyme activity
Mode: inhibitor
Tested at: 77 µM
Baseline: untreated
SMILES	remaining activity
CC1=C(C(=O)OC(C)C)C(c2cccc([N+](=O)[O-])c2)C(C(=O)OC2CN(C(c3ccccc3)c3ccccc3)C2)=C(N)N1 (stereo not drawn)	103%
CC(C)C(=O)c1c(C(C)C)nn2ccccc12	104%
CC(C)C[C@H](NC(=O)[C@@H](O)[C@H](N)Cc1ccccc1)C(=O)O	101%
Nc1ccc2c3c(cccc13)C(=O)NC2=O	89.2%
CNC(=O)c1cc(Oc2ccc(NC(=O)Nc3cc(C(C)(C)C)nn3-c3ccc4ncccc4c3)c(F)c2)ccn1	98.2%
CCOC(=O)NNc1nncc2ccccc12	86.2%
CC[C@H]1OC(=O)[C@H](C)[C@@H](O[C@H]2C[C@@](C)(OC)[C@@H](O)[C@H](C)O2)[C@H](C)[C@@H](O[C@@H]2O[C@H](C)C[C@H](N(C)C)[C@H]2O)[C@](C)(O)C[C@@H](C)C(=O)[C@H](C)[C@@H](O)[C@]1(C)O	104% and 91.3%
CC1=C(/C=C/C(C)=C/C=C/C(C)=C/C=C/C=C(C)/C=C/C=C(C)/C=C/C2=C(C)CCCC2(C)C)C(C)(C)CCC1	99.1%
CC#CCn1c(N2CCC[C@@H](N)C2)nc2c1c(=O)n(Cc1nc(C)c3ccccc3n1)c(=O)n2C	98.2%
O=C(COc1ccc(Cl)cc1)N1CCN(Cc2ccc3c(c2)OCO3)CC1	105%
COc1cc(/C=C/C(=O)N2CCC=CC2=O)cc(OC)c1OC	106%

Study 4
SMILES: CC[n+]1c(/C=C/N(C)c2ccccc2)n(-c2ccccc2)c2ccc(-c3nc4ccccc4s3)cc21
Effect on: enzyme activity
Mode: inhibitor
Tested at: 0.5 µM
Baseline: control
target	remaining activity
Dual specificity protein kinase CLK1 (CLK1, Homo sapiens, UniProt P49759)	108%
Dual specificity protein kinase CLK2 (CLK2, Homo sapiens, UniProt P49760)	98.4%
Serine/threonine-protein kinase PAK 6 (PAK6, Homo sapiens, UniProt Q9NQU5)	95.5%
Protein kinase C zeta type (PRKCZ, Homo sapiens, UniProt Q05513)	99.8%
Serine/threonine-protein kinase SIK2 (SIK2, Homo sapiens, UniProt Q9H0K1)	112%
Ephrin type-A receptor 2 (EPHA2, Homo sapiens, UniProt P29317)	100%
Muscle, skeletal receptor tyrosine-protein kinase (MUSK, Homo sapiens, UniProt O15146)	94.7%
Serine/threonine-protein kinase Sgk2 (SGK2, Homo sapiens, UniProt Q9HBY8)	123%
Mitogen-activated protein kinase kinase kinase 20 (MAP3K20, Homo sapiens, UniProt Q9NYL2)	93.8%
Insulin-like growth factor 1 receptor (IGF1R, Homo sapiens, UniProt P08069)	93%
Casein kinase I isoform epsilon (CSNK1E, Homo sapiens, UniProt P49674)	105%
Tyrosine-protein kinase Tec (TEC, Homo sapiens, UniProt P42680)	161%
Vascular endothelial growth factor receptor 1 (FLT1, Homo sapiens, UniProt P17948)	94.1%
Tyrosine-protein kinase receptor TYRO3 (TYRO3, Homo sapiens, UniProt Q06418)	103%
Calcium/calmodulin-dependent protein kinase type 1 (CAMK1, Homo sapiens, UniProt Q14012)	94.4%
Cyclin-dependent kinase 2, with cyclin E (CDK2, Homo sapiens, UniProt P24941)	92.9%
Serine/threonine-protein kinase PAK 1 (PAK1, Homo sapiens, UniProt Q13153)	87.5%
Tyrosine-protein kinase JAK1 (JAK1, Homo sapiens, UniProt P23458)	104%
Protein kinase C theta type (PRKCQ, Homo sapiens, UniProt Q04759)	94.6%
Calcium/calmodulin-dependent protein kinase kinase 1 (CAMKK1, Homo sapiens, UniProt Q8N5S9)	115%
Ribosomal protein S6 kinase alpha-3 (RPS6KA3, Homo sapiens, UniProt P51812)	109%
SRSF protein kinase 1 (SRPK1, Homo sapiens, UniProt Q96SB4)	105%
Casein kinase I isoform delta (CSNK1D, Homo sapiens, UniProt P48730)	104%

For quick reference, copied from above (study 4):
target	remaining activity
Serine/threonine-protein kinase Sgk2 (SGK2, Homo sapiens, UniProt Q9HBY8)	123%
Mitogen-activated protein kinase kinase kinase 20 (MAP3K20, Homo sapiens, UniProt Q9NYL2)	93.8%
Insulin-like growth factor 1 receptor (IGF1R, Homo sapiens, UniProt P08069)	93%
Casein kinase I isoform epsilon (CSNK1E, Homo sapiens, UniProt P49674)	105%
Tyrosine-protein kinase Tec (TEC, Homo sapiens, UniProt P42680)	161%
Vascular endothelial growth factor receptor 1 (FLT1, Homo sapiens, UniProt P17948)	94.1%
Tyrosine-protein kinase receptor TYRO3 (TYRO3, Homo sapiens, UniProt Q06418)	103%
Calcium/calmodulin-dependent protein kinase type 1 (CAMK1, Homo sapiens, UniProt Q14012)	94.4%
Cyclin-dependent kinase 2, with cyclin E (CDK2, Homo sapiens, UniProt P24941)	92.9%
